# Measured values pooled from the literature.
# Numbered parts are unrelated; each lists some results of a single study. Positions count from the first letter of the parent shown.

# Block 1
# Target: Phosphate system positive regulatory protein PHO4, full length, GST-tagged (PHO4, Saccharomyces cerevisiae, UniProt P07270, residues 1-312)
# Method: competition protein-binding microarray
# Form: double-stranded DNA, one strand shown
# Sample: in vitro
# Tested at: 2 µM
# Setting: whole 60-bp probe, lowest competitor level
# Together with: Cbf1 competitor, 0.05 µM
# Reading: higher = stronger binding
# Shared flanks, not repeated: … GTCTTGATTCGCTTGACGCTGCTG
# Construct (chain): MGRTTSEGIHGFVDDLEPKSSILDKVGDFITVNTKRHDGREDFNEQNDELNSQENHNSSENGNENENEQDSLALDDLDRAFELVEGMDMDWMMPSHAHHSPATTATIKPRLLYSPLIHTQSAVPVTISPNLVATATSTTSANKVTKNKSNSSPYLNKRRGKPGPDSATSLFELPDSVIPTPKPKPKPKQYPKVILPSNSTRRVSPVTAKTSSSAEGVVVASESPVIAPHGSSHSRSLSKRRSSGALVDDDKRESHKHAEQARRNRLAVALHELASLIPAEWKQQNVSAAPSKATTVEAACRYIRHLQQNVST
Sequence,fluorescence intensity
AAAGCGGTAATTTGTCACCGCACTTCACATATCTAT,4200 a.u.
GTCTTGTCTCATTTTCACGTGAGGTTCCCCACTTCA,9000 a.u.
ATAGACAATACTTTTCACATGCCGCATTTAGCCGCC,5940 a.u.
GTCCGATGTCCCCATCACGTTCATCACAACATTCCT,11100 a.u.
AGTTGCCACAGGAGTTGCGTGACGGGTTGATAAAGG,6100 a.u.
TCGCACTGAAGCGATCAGCTGATGAACAGGCGGTAC,2930 a.u.
AGACCAGATGGGGTCCACGTTATCAACGTTGGTAAG,9330 a.u.
CTTCTGTAAATTTGGTCAGTGGGTGGACGCGCCCCG,3950 a.u.
TTTGGCGCAAATTACCATGTGAGCGAGCGGGAATAA,6220 a.u.
AAAGCGGTAATTTGATGTGTGGGTGCAGATATCTAT,5600 a.u.
CATACCCAACCTTGGGCTGTGGGTGAAGATATTTGT,3860 a.u.
CTTTCCCGATCTTGTTGTGTGGGTGTAGCACATTTG,5260 a.u.
CGTCCTAGTGATTGCTGTGTGGGTGCCATGAGGAAG,8160 a.u.
ACTGTTGAAAAAAAGCACGCTGCAGTTGCATCAGGG,9080 a.u.
AAAGCGGTAATTTGTCACGCAACTTCACATATCTAT,5400 a.u.
CGAGATATGGCTAGACACATGGCCACAATAATATCT,10100 a.u.
AAATTACTAAGTTTTCACGTGATTTACCCCGTATGA,10800 a.u.
CTTCTGTAAATTTGTTATGTGGGTGGACGCGCCCCG,4610 a.u.
CTTCTGTAAATTTGTCACCATACTTGACGCGCCCCG,3780 a.u.
CTTCTGTAAATTTGCGCAGTGGGTGGACGCGCCCCG,3670 a.u.
AAAGCGGTAATTTGTCACGAAACTTCACATATCTAT,3480 a.u.

# Block 2
# Target: CCND2, cyclin fold, Cln2 fusion (human)
# Method: yeast growth competition, sequencing
# Sample: yeast
# Setting: weak parent motif
# Baseline: not given
# Reading: higher = stronger binding
# Starting sequence: GMNC docking peptide (human); KNAKRNLSSEFAN; partner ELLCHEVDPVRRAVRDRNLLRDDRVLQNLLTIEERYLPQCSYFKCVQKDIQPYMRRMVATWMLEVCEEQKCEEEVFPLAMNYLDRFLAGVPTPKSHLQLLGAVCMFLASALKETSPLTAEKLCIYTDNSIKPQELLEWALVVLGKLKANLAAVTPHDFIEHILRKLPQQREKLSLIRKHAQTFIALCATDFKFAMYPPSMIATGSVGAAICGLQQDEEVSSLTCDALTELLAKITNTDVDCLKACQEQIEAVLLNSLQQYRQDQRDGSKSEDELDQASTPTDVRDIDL
Substitution,normalised enrichment score
E10C,-0.13
S8N,0.311
S8L,0.422
N6P,0.0758
L7W,-0.0272
L7S,-0.0957
F11E,-0.0554
K4F,0.131
A3L,-0.0738
A3H,0.53
N6C,-0.102
F11Y,0.182
E10I,-0.307
A3G,-0.0654
N2Y,0.255
L7R,-0.183
S8K,0.0659
A12C,0.0937
R5S,-0.0589
S9F,0.397
K4M,0.0281
F11D,0.22
A3P,-0.22
A12R,0.197
F11I,0.176

# Block 3
# Target: PABPC1L2, full length, GST fusion (mouse, UniProt A0ABA7IW68)
# Method: RNAcompete
# Form: RNA
# Sample: in vitro
# Tested at: 20 nM
# Setting: 7-mer, probes averaged, single round
# Baseline: mean of 7-mers
# Reading: higher = stronger binding
# Construct (chain): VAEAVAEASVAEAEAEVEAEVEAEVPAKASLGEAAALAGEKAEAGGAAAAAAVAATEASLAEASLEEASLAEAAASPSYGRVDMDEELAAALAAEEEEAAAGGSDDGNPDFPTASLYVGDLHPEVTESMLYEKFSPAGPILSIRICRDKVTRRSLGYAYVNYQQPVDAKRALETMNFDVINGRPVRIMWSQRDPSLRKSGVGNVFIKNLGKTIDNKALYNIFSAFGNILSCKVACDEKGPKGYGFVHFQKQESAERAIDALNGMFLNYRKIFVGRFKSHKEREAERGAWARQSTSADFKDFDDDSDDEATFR
Sequence,7-mer Z-score
GGUGGUU,-0.193
GUUCAGA,-0.204
GCCGUUU,-0.586
GCGAAAA,5.09
CUGAAAU,-0.0772
GGAAAGG,0.245
UGGCGCC,-0.186
AAAUCAU,0.909
AGCUAUU,-0.119
CUCGGGU,-0.0645
CCCCCUG,-0.461
GUAAUAG,-0.0699
AUGGUCC,-0.0246
UGUCUUG,-0.38
UGUCUCC,-0.441
UGACGUU,-0.347
GACGAGA,0.233
GAACCUC,-0.246
UAACUAU,-0.0899
GCAUAGG,-0.0228
AGUAUAA,0.332
GGAGUGC,-0.0391
GGCAGCC,-0.101
GCAUUUU,-0.171
UUGGCGA,-0.00108

# Block 4
# Target: ABI1, truncated, D143A, DHFR fusion (Arabidopsis thaliana)
# Method: DHFR PCA, deep sequencing
# Sample: yeast
# Setting: methotrexate growth selection, single substitutions
# Together with: (+)-ABA 58 µM
# Baseline: wild-type fitted maximum
# Reading: higher = stronger binding
# Starting sequence: PYL1, truncated, DHFR fusion (Arabidopsis thaliana); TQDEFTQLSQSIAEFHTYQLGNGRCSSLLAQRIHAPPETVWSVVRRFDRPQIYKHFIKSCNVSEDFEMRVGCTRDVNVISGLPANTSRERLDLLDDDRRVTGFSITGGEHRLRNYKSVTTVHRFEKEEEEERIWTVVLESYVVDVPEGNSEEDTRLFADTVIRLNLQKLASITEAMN
Substitution,relative binding score [%]
D65L,67.7
P50C,27.1
D96L,5.55
V121L,75.9
T1D,82.1
D95F,15.1
N114W,-1.87
H110A,20.4
F5E,83.2
L112E,-5.91
S27N,99.6
F103P,-12.7
T17R,74.8
A158S,60.1
E128A,97.9

# Block 5
# Target: RNA binding protein fox-1 homolog 2, RRM domain, GST-SBP tag (RBFOX2, Homo sapiens, UniProt O43251-10, residues 100-194)
# Method: RNA Bind-n-Seq
# Form: RNA
# Sample: in vitro
# Tested at: 365 nM
# Setting: natural RNA segment, single round, ends assumed
# Baseline: no-protein control
# Reading: higher = stronger binding
# Shared flanks, not repeated: GGGAGUUCUACAGUCCGACGAUC … UGGAAUUCUCGGGUGCCAA
# Target sequence (chain): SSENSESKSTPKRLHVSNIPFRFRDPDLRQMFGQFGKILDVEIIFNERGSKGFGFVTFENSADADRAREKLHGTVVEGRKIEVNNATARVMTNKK
Sequence,RBNS enrichment (R)
GAGUAGUGAAUCUCUCAGCCAAGGAGGGAAAGAAAAGGAAGAACUCUUGACUAUUUAGAUUCUAGUUAAAUAUCUGGAAUCCUAGCAGUCACUACAUUAUCUCAGCAGAG,0.442
GGUGACGCCACCCACAGAGAUUUAAUGAGCGUGGGCCUGGACCUUCCCCAGAUGCUGCCAGGCAGCCCCUCCCCAAGCCUCAAAGAAGCAUUUGCUGAGGAUGGAGAGGC,0.562
AAACAAGAAAACUUUGCUUCAAAGAUCUCAUGUGUGGGAACCACAGCGCCUGGUUGCCUUUCUCCUGUGUAUGUGUAAAUUCCUUAAUAAAUAUUGCAGGGAAAGACCCU,0.429
CAGGUCCCCACCUGACCACCUGUGAACUGGCCAUCAUCAGGCUCCCAGUUUCUCCUGUACAAAUCCCUGGCUCCUCGUGGGUCCUCGGGACCCGUACCAUACCUGCAAUG,0.415
GUAGGUGUAAAAGUGUAUUCAAACUCUAGACACGGCUAAUCAGAUUUUAAUUCAAUCAUACACACAUAAUCCUUUGUAAUCAUUUUUCUUUUAAGUGAGGAUAUCUACUG,0.473
UAUUUUGAAUUGGAUCGUUACAAAUGAGCAUAUUUGAUGCGGAAAUUUCUGGGAGAAAAAAAAUUGAGGAAAUAAAGUUAAAAAAUUGACAUUCAUUGAGCCAAAAGAGA,0.8
AUUCUCUUCUAGUGUUUGCUUAAAAUAUGUGAAGUUUUUCUUGCUAUUUCAAUAACAAAUGGUGCUGCUAACACCCAACAUUUCCUAAAUUAUUUUCUAUCAUACAGUUU,0.852
UUGUCUGUCUAUGUUGUGCCUUAGUGCCUGCACUGCCCCUACCCUUCUGCUGCCUGACCUCUGCAUGGUGUCUUGACCUGGGCCUCAUGUGUAGCUGCACUGCCUUUGUC,6.43
GCUGGGCCCCAGUCUCCAAGGGCGAGAAUGGACCCUGAUGGACUUGGACAUGGAGCUGUCCUUGGGAAGGACCCCACGCUCGGGGCCCCACUCCUGCUGGAUGUCCAGGC,0.226
UCGUCCUUCCAUGGCUGUAAUUAAGAUGGGGGAGCUUCGCUGAUCGUUGUGUAGUGAGCACCUUGUUCCCACUUUUGUAGUCCUUUCCGUUCUGACCCGUCAGCAGCCUG,0.708
GUAUUUCUCCAUCUCCAGUUCUGGACAGUGCAGGUUGCCAAGAAAAGGGACCUAGUUUAGCCAUUGCCCUGGAGAUGAAAUUAAUGGAGGCUCAAGGAUAGAUGAGCUCU,0.652
ACCUGCGUGGCUUCAGACAAGGCCCCAGCGUUACUGGGCUCAGCUUGUUGUUCUGUGUGGAGCGUGAGGUGAGAAAACCCCUCUGAAAAGAUGUGGUCGGGGCCACGCUU,0.719

# Excerpt of the above (block 1):
Sequence,fluorescence intensity
AGACCAGATGGGGTCCACGTTATCAACGTTGGTAAG,9330 a.u.
CTTCTGTAAATTTGCGCAGTGGGTGGACGCGCCCCG,3670 a.u.
CTTCTGTAAATTTGTTATGTGGGTGGACGCGCCCCG,4610 a.u.
CTTCTGTAAATTTGGTCAGTGGGTGGACGCGCCCCG,3950 a.u.
CGAGATATGGCTAGACACATGGCCACAATAATATCT,10100 a.u.
AAAGCGGTAATTTGTCACGCAACTTCACATATCTAT,5400 a.u.
AAATTACTAAGTTTTCACGTGATTTACCCCGTATGA,10800 a.u.
CTTCTGTAAATTTGTCACCATACTTGACGCGCCCCG,3780 a.u.
AAAGCGGTAATTTGATGTGTGGGTGCAGATATCTAT,5600 a.u.
AAAGCGGTAATTTGTCACGAAACTTCACATATCTAT,3480 a.u.
AAAGCGGTAATTTGTCACCGCACTTCACATATCTAT,4200 a.u.
TTTGGCGCAAATTACCATGTGAGCGAGCGGGAATAA,6220 a.u.
CATACCCAACCTTGGGCTGTGGGTGAAGATATTTGT,3860 a.u.
AGTTGCCACAGGAGTTGCGTGACGGGTTGATAAAGG,6100 a.u.
CGTCCTAGTGATTGCTGTGTGGGTGCCATGAGGAAG,8160 a.u.
TCGCACTGAAGCGATCAGCTGATGAACAGGCGGTAC,2930 a.u.
